Measured values pooled from the literature.
Numbered parts are unrelated; each lists some results of a single study.

Study 1 — method: protein-binding microarray; molecule type: double-stranded DNA, one strand shown; sample: in vitro; concentration: not given; direction: higher = stronger binding; endpoint: E-score
Target: Protein C-ets-1 (ETS1, Homo sapiens, UniProt P14921, residues 1-441, full length assumed)
UniProt P14921, sequence (whole entry, looked up): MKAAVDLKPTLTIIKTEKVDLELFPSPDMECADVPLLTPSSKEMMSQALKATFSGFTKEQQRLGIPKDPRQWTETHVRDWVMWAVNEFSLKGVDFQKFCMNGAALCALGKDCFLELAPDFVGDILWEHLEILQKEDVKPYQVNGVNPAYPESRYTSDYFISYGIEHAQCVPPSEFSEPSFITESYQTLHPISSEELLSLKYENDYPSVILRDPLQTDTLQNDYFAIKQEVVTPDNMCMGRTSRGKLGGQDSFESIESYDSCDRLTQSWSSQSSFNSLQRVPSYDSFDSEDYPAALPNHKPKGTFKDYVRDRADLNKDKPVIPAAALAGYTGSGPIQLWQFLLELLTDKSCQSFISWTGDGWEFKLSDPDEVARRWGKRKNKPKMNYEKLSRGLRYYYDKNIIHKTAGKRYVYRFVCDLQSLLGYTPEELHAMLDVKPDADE
Setting: k-mer, scored over probes, only values ≥0.25
TTCCGGAA: 0.492
CGTCCGGC: 0.46
ACGGCGGA: 0.365
GGAAACGA: 0.422
ATCCGGAT: 0.467
CAAATCCG: 0.316
ACCTTCCT: 0.315
CCAGGAAC: 0.254
ATCAGGAT: 0.287

Study 2 — method: Sort-seq; measured: YFP reporter; sample: E. coli; setting: PhoQ-PhoP variant library; with: 10 µM Mg2+; relative to: high Mg2+ state; direction: higher = stronger signaling; endpoint: fold induction
Molecule: PhoQ, residues 284 288 289 292 302 303 SSLVEF
PhoP, residues 12 14 15 18 19 HHYTI (Escherichia coli, UniProt P23836): 1.59
PhoP, residues 12 14 15 18 19 AYFRS (Escherichia coli, UniProt P23836): 4.75
PhoP, residues 12 14 15 18 19 SFCSL (Escherichia coli, UniProt P23836): 17.8

Study 3 — method: aptamer microarray, sandwich; molecule type: DNA with 2'F-ANA; sample: in vitro; concentration: 200 nM; with: Cy3 exosite-II aptamer, 400 nM; direction: higher = stronger binding; endpoint: mean fluorescence intensity; strand: GGTTGGTGTGGTTGG
Target: Prothrombin, mature alpha-thrombin (F2, Homo sapiens, UniProt P00734)
Setting: whole 15-mer aptamer, many near background
2'F-ANA at 1 6 8 10 13: 51.5 a.u.
2'F-ANA at 4 6 7 8 13: 230 a.u.
2'F-ANA at 3 7 10 11 12 13 14: 466 a.u.
2'F-ANA at 2 5 7 8 10 11 12 13: 93.9 a.u.
2'F-ANA at 3 4 5 6 7 8 9 10 12 14 15: 60.1 a.u.
2'F-ANA at 2 3 5 8 12 13 14 15: 77.7 a.u.
2'F-ANA at 1 5 9 10 13: 42.6 a.u.
2'F-ANA at 1 5 6 9 10 11 13 14: 50.5 a.u.
2'F-ANA at 1 4 6 10 13 15: 44.9 a.u.
2'F-ANA at 1 3 8 10 11 13 14: 122 a.u.
2'F-ANA at 1 2 5 8 9 10 11 12 14 15: 60.7 a.u.
2'F-ANA at 6 7 12 13 14 15: 214 a.u.
2'F-ANA at 2 3 7 8 9 11 13 15: 642 a.u.
2'F-ANA at 1 3 7 9 11 13 14 15: 93.7 a.u.
2'F-ANA at 1 2 6 8 9 10 11 15: 56.5 a.u.

Study 4 — method: protein-binding microarray; molecule type: double-stranded DNA, one strand shown; sample: in vitro; concentration: 2540 nM top; setting: 60-bp whole probe; with: salmon DNA 0.4 mg/ml; relative to: random background probes; direction: higher = stronger binding; endpoint: fitted relative affinity; constant ends, left off below: GCCTAGCAC … GTCTTGATTCGCTTGACGCTGCTG
Target: Interferon regulatory factor 3, full length, phosphomimetic (IRF3, Homo sapiens, UniProt Q14653, residues 1-427, S386D/S396D/S398D/S402D/T404D/S405D)
Residues (chain): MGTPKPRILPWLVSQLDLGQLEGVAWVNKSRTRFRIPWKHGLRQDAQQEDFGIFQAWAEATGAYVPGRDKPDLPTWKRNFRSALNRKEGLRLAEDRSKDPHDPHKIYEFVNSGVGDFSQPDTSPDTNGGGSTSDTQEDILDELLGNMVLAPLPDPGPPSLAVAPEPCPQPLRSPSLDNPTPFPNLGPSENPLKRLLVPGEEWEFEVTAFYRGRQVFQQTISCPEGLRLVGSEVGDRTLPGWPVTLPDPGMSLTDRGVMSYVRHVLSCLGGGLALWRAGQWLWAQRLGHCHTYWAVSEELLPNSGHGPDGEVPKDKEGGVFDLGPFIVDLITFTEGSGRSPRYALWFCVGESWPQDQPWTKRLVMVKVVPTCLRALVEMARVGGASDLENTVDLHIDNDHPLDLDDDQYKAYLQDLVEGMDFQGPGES
TTAGGTATCGACACTGGGTTGGTGCTA: 0.229 z-score
GACGGTATCGACCCTGGGGACGTGCTA: 0.118 z-score
TTAGGTTTCGGACTGGGTAAGTGCTAG: 4.32 z-score
GACCATTTCAGTCTCGAGACGTGCTAG: 2.68 z-score
GACGGTATCGACTTTCGAGACGTGCTA: 1.2 z-score
GACGGTCTCAGTTTCGGGACGTGCTAG: 3.65 z-score
TTAGATTTCAATTTCGATTAGTGCTAG: 3.1 z-score
GACGATCTCAGTAGCGAGACGTGCTAG: 0.338 z-score

A few entries again (study 1):
ACGGCGGA: 0.365
GGAAACGA: 0.422
ATCCGGAT: 0.467
CAAATCCG: 0.316
ACCTTCCT: 0.315
CCAGGAAC: 0.254
